Experimental data collected from several papers.
Parts stem from different laboratories: compare values within a part only.

Study 1
Target: Ras GTPase-activating protein-binding protein 1, RRM domain (G3BP1, Homo sapiens, UniProt Q13283)
Sequence of UniProt Q13283 (whole entry, looked up): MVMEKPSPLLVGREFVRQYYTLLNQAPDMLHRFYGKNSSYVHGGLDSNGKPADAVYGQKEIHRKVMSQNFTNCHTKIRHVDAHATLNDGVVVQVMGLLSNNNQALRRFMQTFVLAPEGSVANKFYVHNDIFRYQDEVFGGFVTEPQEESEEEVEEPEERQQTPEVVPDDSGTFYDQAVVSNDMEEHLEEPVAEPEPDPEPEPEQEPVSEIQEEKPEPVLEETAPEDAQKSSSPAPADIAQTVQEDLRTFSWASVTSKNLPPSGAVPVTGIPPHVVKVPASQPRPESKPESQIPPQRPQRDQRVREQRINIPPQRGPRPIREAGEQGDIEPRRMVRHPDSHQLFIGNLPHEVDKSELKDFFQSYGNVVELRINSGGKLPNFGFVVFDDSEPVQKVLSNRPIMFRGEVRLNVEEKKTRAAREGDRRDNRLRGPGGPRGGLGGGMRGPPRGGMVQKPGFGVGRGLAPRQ
Technique: RNA Bind-n-Seq
Form: RNA
Medium: in vitro
Tested at: 1 µM
Setting: whole 134-nt RNA, ends assumed
Added: 150 mM KCl
Relative to: input library
Direction: higher = stronger binding
Measurement: log2 enrichment
Shared flanks, not repeated: GGGAGUUCUACAGUCCGACGAUC … UGGAAUUCUCGGGUGUCAAGG
GUCCUGUGCUACACAUCGUAUGUACCGAAUCGGCCCCCCGGGCCCCCCGGCCCCCCGGGAAAGUAUUAUGUUACGCCGUUCGGAUCUGCA: -0.391
CUCAAGUCCUGUGCUACACAUCGUAUGUACCGAAUCGGGGCCGGCCGGGGCCGGAAAGUAUUAUGUUACGCCGUUCGGAUCUGCACUUCC: -0.681
UUUAAGAGCAGCCAGGGAGAUAGUGGCGUUGACUUGAGUGCCGAGUCUCGGGAGUCGUCUGCGACCUCCUCGCAGCGCAGCUCCCCAUAU: 0.0733
ACCAUGCAGGUGGGCAUCUUUGGGAAGUGGGGCAGGGGGGGGAUAGGGAGGGGGGUAACACUUUGGGAACAGGUGGUCCCAGGUCGUUUC: -0.628
CACAGACAACACGCACCCACACAGACACAGAAGGAAGGGGUUGGGAUGGGGACAGGGUGCACAGCAGGGCGGGGUAGGACCCCAGCCCCU: 0.056

Study 2
Target: Myc proto-oncogene protein, bHLH-zipper, MAX partner unstated (MYC, Homo sapiens, UniProt P01106, residues 368-449)
Sequence of UniProt P01106 (368-449, looked up): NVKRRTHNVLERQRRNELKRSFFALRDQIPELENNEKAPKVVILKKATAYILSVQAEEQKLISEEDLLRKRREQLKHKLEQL
Technique: protein-binding microarray
Form: double-stranded DNA, one strand shown
Medium: in vitro
Tested at: not given
Setting: k-mer, scored over probes, only values ≥0.25
Direction: higher = stronger binding
Measurement: E-score
ATCCACGA: 0.292
ATGTGTCA: 0.344
CCACATGA: 0.422
GACCACGC: 0.466
CATCCACG: 0.355
AGCATGGC: 0.434
ACGTGAAG: 0.259
CAACATGG: 0.311
CATGCCCC: 0.345

Study 3
Target: Sal-like protein 4, full length isoform B (SALL4, Homo sapiens, UniProt Q9UJQ4-2, residues 1-616)
Technique: universal PBM
Form: double-stranded DNA, one strand shown
Medium: in vitro
Tested at: not given
Setting: 8-mer, flanks averaged, mean of replicates
Direction: higher = stronger binding
Measurement: E-score
CGTCTCGC: -0.239
ACACGAAG: -0.0391
GAGGCCAC: -0.269
CTCCTAGC: -0.205
TCAGTCCA: -0.243
CAGTGAAA: 0.0538
CCGGTGTC: -0.343
AGAATGCA: 0.0701

Other studies, line by line
PhoQ, residues 284 288 289 292 302 303 TNASYF — fold induction (PhoP, residues 12 14 15 18 19 MHTVL (Escherichia coli, UniProt P23836); Sort-seq, item: YFP reporter; E. coli; PhoQ-PhoP variant library, added: 10 µM Mg2+; relative to: high Mg2+ state, higher = stronger signaling): 8.88
